Experimental data from different studies.
Lines come from different studies, so protocols differ. ± marks the error that the study gave.

CC[C@H](C)[C@H](NC(=O)[C@@H](NC(=O)CN)C(C)C)C(=O)N[C@@H](Cc1ccccc1)C(=O)N[C@@H](CC(N)=O)C(=O)N[C@@H](C)C(=O)N[C@@H](CC(C)C)C(=O)N[C@@H](CCCCN)C(=O)NCC(=O)N[C@H](C(=O)N[C@@H](C)C(=O)N[C@@H](CCCCN)C(=O)N[C@H](C(=O)N[C@H](C(=O)N[C@@H](C)C(=O)N[C@@H](C)C(=O)N[C@@H](CCC(N)=O)C(=O)N[C@@H](CC(C)C)C(=O)N[C@@H](CC(C)C)C(=O)N[C@@H](CCCCN)C(=O)N[C@@H](CCCCN)C(=O)N[C@@H](C)C(=O)N[C@@H](CCCNC(=N)N)C(=O)N[C@H]1CSSC[C@@H](C(=O)O)NC(=O)[C@H](CO)NC(=O)[C@H](CCCCN)NC(=O)[C@H](CC(=O)O)NC(=O)[C@H](CC(C)C)NC(=O)[C@H](CCCCN)NC1=O)C(C)C)[C@@H](C)O)C(C)C
MBEC (Staphylococcus aureus; persister cells in biofilm; MRSA ATCC BAA-1707; with: vancomycin 4 µg/mL): > 512 µM

OC[C@H]1O[C@@H](SSCc2ccc(CSS[C@@H]3O[C@H](CO)[C@H](O)[C@H](O)[C@H]3O)c3ccccc23)[C@H](O)[C@@H](O)[C@H]1O
viability (Trypanosoma brucei; parasite growth, flow cytometry; 5 µM, 24 h): 88.4%

O=C(Cc1csc2nc(-c3ccc(Br)cc3)cn12)NN=C1CCCC1
EC50 (Parainfluenza-3 virus; viral cytopathicity, microscopy; Vero): > 100 µg/mL

CC[C@H](C)[C@H](NC(=O)[C@H](CCCCN)NC(=O)[C@H](CCCCN)NC(=O)[C@H](CC(C)C)NC(=O)[C@H](CCCCN)NC(=O)[C@H](CCC(=O)O)NC(=O)[C@H](CCCCN)NC(=O)[C@@H](NC(=O)[C@H](CCCCN)NC(=O)[C@H](CC(N)=O)NC(=O)[C@H](CCCNC(=N)N)NC(=O)[C@H](Cc1ccccc1)NC(=O)[C@H](CCCCN)NC(=O)[C@H](CCCNC(=N)N)NC(=O)[C@H](CC(C)C)NC(=O)[C@H](CCCNC(=N)N)NC(=O)[C@H](CCCCN)NC(=O)[C@H](CCCNC(=N)N)NC(=O)[C@H](CC(C)C)NC(=O)[C@@H](N)CC(C)C)[C@@H](C)CC)C(=O)NCC(=O)N[C@@H](CCC(N)=O)C(=O)N[C@@H](CCCCN)C(=O)N[C@H](C(=O)N[C@@H](CCC(N)=O)C(=O)NCC(=O)N[C@@H](Cc1ccccc1)C(=O)N[C@H](C(=O)N1CCC[C@H]1C(=O)N[C@@H](CCCCN)C(=O)N[C@@H](CC(C)C)C(=O)N[C@H](C(=O)N1CCC[C@H]1C(=O)N[C@@H](CCCNC(=N)N)C(=O)N[C@H](C(=O)N[C@@H](CCC(=O)O)C(=O)N[C@@H](CO)C(=O)O)[C@@H](C)O)C(C)C)C(C)C)[C@@H](C)CC
lethal concentration (Streptococcus mutans; inhibition zone; ATCC 1.2499; LB agar, overnight): 2.02 µM

CC[C@H](C)[C@H](NC(=O)[C@H](Cc1c[nH]c2ccccc12)NC(=O)[C@H](CCCNC(=N)N)NC(=O)[C@H](CCC(N)=O)NC(=O)[C@@H](NC(=O)[C@H](Cc1c[nH]c2ccccc12)NC(=O)[C@H](CCCNC(=N)N)NC(=O)[C@H](CCCNC(=N)N)NC(=O)[C@H](C)NC(=O)[C@H](C)NC(=O)[C@H](C)NC(=O)[C@@H](NC(=O)[C@H](CCCCN)NC(=O)[C@@H]1CCCN1C(=O)[C@H](CCCNC(=N)N)NC(=O)[C@H](Cc1c[nH]c2ccccc12)NC(=O)[C@H](CCCNC(=N)N)NC(=O)[C@H](CCCNC(=N)N)NC(=O)[C@@H](NC(=O)[C@H](Cc1c[nH]c2ccccc12)NC(=O)[C@H](CCCNC(=N)N)NC(=O)[C@H](CCC(N)=O)NC(=O)[C@@H](NC(=O)[C@H](Cc1c[nH]c2ccccc12)NC(=O)[C@H](CCCNC(=N)N)NC(=O)[C@@H](N)CCCNC(=N)N)C(C)C)[C@@H](C)CC)C(C)C)C(C)C)C(=O)N[C@@H](CCCNC(=N)N)C(=O)N[C@@H](CCCNC(=N)N)C(=O)N[C@@H](Cc1c[nH]c2ccccc12)C(=O)N[C@@H](CCCNC(=N)N)C(=O)N1CCC[C@H]1C(=O)N[C@@H](CCCCN)C(=O)N[C@H](C(N)=O)C(C)C
inhibitory concentration (Talaromyces; 25 °C, metabolic activity and growth): 0.625 µM

NNC(=O)/C=C/c1ccc(N)cc1
LC90 (Aedes aegypti; larvicidal activity; third instar larvae; 72 h): 208 ppm

COc1ccc(-n2c(SCC#N)nnc2[C@H](Cc2ccccc2)NC(=O)Cc2c(C)[nH]c3ccccc23)cc1
selectivity index (HIV-2; MT-4, wild type; baseline: CC50 over EC50): 36

OC[C@H]1O[C@@H](SCc2ccc(CS[C@@H]3O[C@H](CO)[C@H](O)[C@H](O)[C@H]3O)c3ccccc23)[C@H](O)[C@@H](O)[C@H]1O
viability (Trypanosoma brucei; parasite growth, flow cytometry; 5 µM, 24 h): 96.9%

O=[N+]([O-])c1ccc([Se][C@@H]2O[C@H](CO)[C@@H](O)[C@H](O)[C@H]2O)c([N+](=O)[O-])c1
viability (Trypanosoma brucei brucei; bloodstream form; 5 µM, 24 h, 1 % DMSO): 69.4 ± 5.1%

COc1ccc(C(=O)N2c3ccc(F)cc3[C@@H](Nc3ccccc3)C[C@H]2C)cc1
mortality (Aedes albopictus; 1 µM, 72 h, second-instar larvae; baseline: Abbott-corrected control): 41 ± 9%

COc1cc(O)cc(/C=C/c2ccccc2)c1
MIC50 (Streptococcus mutans; microbial growth): 546 µM

C[C@@H]1C[C@H](Nc2ccccc2)c2cc(F)ccc2N1C(=O)c1ccc([N+](=O)[O-])cc1
mortality (Aedes albopictus; 1 µM, 72 h, second-instar larvae; baseline: Abbott-corrected control): 34 ± 23%

CC[C@@H](C)[C@@H](NC(=O)[C@@H](C)NC(=O)[C@@H](CCCCN)NC(=O)[C@@H](CC(C)C)NC(=O)[C@@H](C)NC(=O)[C@H](NC(=O)[C@@H](Cc1c[nH]cn1)NC(=O)[C@@H](CC(C)C)NC(=O)[C@H](NC(=O)[C@H](NC(=O)[C@@H](CCCCN)NC(=O)[C@@H](CCCCN)NC(=O)[C@@H](C)NC(=O)[C@@H](CO)NC(=O)[C@@H](CCCCN)NC(=O)[C@@H](Cc1ccccc1)NC(=O)[C@H](NC(=O)[C@@H](CCCCN)NC(=O)[C@@H](CC(C)C)NC(=O)[C@@H](Cc1ccccc1)NC(=O)[C@@H](CO)NC(=O)[C@@H](CCCCN)NC(=O)[C@@H](Cc1c[nH]c2ccccc12)NC(=O)[C@@H](CCCCN)NC(C)=O)[C@H](C)O)[C@H](C)O)C(C)C)[C@H](C)O)C(=O)N[C@H](CO)C(=O)N[C@H](CO)C(N)=O
MIC50 (Scedosporium prolificans; clinical isolate; 48 h, 30 °C): 50 µg/mL
